Values quoted from earlier work as cited in several papers.
Lines come from different studies, so protocols differ. ± marks the error that the study gave.
Chain of UniProt Q16513 (whole entry, looked up): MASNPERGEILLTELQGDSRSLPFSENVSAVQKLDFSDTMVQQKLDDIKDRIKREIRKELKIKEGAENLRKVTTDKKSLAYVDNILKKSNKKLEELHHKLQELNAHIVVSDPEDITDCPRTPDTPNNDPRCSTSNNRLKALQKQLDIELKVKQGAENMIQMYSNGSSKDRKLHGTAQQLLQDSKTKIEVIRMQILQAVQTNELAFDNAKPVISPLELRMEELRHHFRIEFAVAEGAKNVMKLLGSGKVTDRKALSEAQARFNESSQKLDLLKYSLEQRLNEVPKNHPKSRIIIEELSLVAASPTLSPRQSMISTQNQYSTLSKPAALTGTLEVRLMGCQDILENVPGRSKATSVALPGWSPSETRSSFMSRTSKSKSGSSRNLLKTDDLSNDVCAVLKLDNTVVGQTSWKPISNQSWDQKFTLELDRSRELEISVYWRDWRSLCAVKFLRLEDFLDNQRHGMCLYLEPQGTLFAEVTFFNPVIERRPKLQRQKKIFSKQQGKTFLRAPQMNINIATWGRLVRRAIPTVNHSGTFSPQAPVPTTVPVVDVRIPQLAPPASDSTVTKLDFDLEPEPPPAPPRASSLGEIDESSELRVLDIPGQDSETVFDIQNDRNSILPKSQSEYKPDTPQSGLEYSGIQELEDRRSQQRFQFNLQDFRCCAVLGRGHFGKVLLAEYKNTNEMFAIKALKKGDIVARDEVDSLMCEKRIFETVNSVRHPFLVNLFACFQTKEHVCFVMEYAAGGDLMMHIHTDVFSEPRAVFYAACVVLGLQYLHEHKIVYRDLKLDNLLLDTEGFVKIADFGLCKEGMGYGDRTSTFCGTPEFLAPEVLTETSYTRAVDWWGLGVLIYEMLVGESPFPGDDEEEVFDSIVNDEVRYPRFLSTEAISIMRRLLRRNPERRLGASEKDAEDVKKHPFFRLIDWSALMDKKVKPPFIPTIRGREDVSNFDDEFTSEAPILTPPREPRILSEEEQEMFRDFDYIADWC

`Cc1nsc(-c2nnc3n2CCN(C(=O)c2ccc(F)cc2)[C@@H]3C)n1` has a Cmax of 0.153 µg/mL (human; oral, 20 mg, day 1, fed).
For `O=C(O)[C@H]1O[C@@H](Oc2ccc([C@@H]3[C@@H](CC[C@H](O)c4ccc(F)cc4)C(=O)N3c3ccc(F)cc3)cc2)[C@H](O)[C@@H](O)[C@@H]1O`, the Cmax increase was 2.64 fold (human, serum; dose not given, together with: rifampin, 600 mg, single dose; baseline: without rifampin).
For `C[C@@H](Oc1ccc(S(C)(=O)=O)cc1C(=O)N1C[C@@H]2C[C@]2(c2cc(C(F)(F)F)on2)C1)C(F)(F)F`, the Cmax ratio was 0.37 (human; 25 mg single dose, observed geometric mean, together with: rifampicin; baseline: with over without rifampicin).
The remaining activity of `Nc1cc(C(F)(F)F)c(-c2nc(N3CCOCC3)nc(N3CCOCC3)n2)cn1` is reported as 100% (PKN2 (Homo sapiens, UniProt Q16513); enzyme activity; 10 µM; baseline: untreated).
With `C=CC(=O)N1CCC([C@@H]2CCNc3c(C(N)=O)c(-c4ccc(Oc5ccccc5)cc4)nn32)CC1` the Cmax was 0.137 ± 0.069 µg/mL (human patients; oral, 80 mg once daily, day 1).
For `O=C(c1cc(Cc2n[nH]c(=O)c3ccccc23)ccc1F)N1CCN(C(=O)C2CC2)CC1`, the Cmax ratio was 2.2 (human; oral, 300 mg tablet, single dose, together with: rifampicin 600 mg qd for 13 days; baseline: with over without rifampicin).
For `CCN1CCN(Cc2ccc(Nc3ncc(F)c(-c4cc(F)c5nc(C)n(C(C)C)c5c4)n3)nc2)CC1`, the Cmax increase was 24% (healthy human; dose not given, 50% w/w capsule, together with: high-fat meal).
For `COc1cc2c(Oc3ccc4[nH]c(C)cc4c3F)ccnc2cc1OCC1(N)CC1`, the Cmax was 0.0039 ± 0.0016 µg/mL (human, fasting; 5 mg).
`C[C@H]1O[C@@H](O[C@H]2[C@@H](O)C[C@H](O[C@H]3[C@@H](O)C[C@H](O[C@H]4CC[C@@]5(C)[C@H](CC[C@@H]6[C@@H]5C[C@@H](O)[C@]5(C)[C@@H](C7=CC(=O)OC7)CC[C@]65O)C4)O[C@@H]3C)O[C@@H]2C)C[C@H](O)[C@@H]1O` gave a Cmax ratio of 1.38 (human; together with: diltiazem; baseline: with over without diltiazem).
`CNCc1cc(-c2ccccc2F)n(S(=O)(=O)c2cccnc2)c1` has a Cmax of 0.0471 µg/mL (human; 40 mg, single dose, fed, CYP3A victim drug).
For `CCOc1c([C@H](C)n2nc(C)c3c(N)ncnc32)cc(Cl)c(F)c1[C@@H]1CNC(=O)C1`, the Cmax increase was 21% (human; oral, 10 mg once daily, together with: itraconazole; baseline: compound alone).
`COCCc1ccc(OCC(O)CNC(C)C)cc1` (stereo not drawn) has a Cmax of 0.019 µg/mL (human fasted; 50 mg multiple doses, day 5, mean).

For quick reference, copied from above:
`Cc1nsc(-c2nnc3n2CCN(C(=O)c2ccc(F)cc2)[C@@H]3C)n1` has a Cmax of 0.153 µg/mL (human; oral, 20 mg, day 1, fed).
For `C[C@@H](Oc1ccc(S(C)(=O)=O)cc1C(=O)N1C[C@@H]2C[C@]2(c2cc(C(F)(F)F)on2)C1)C(F)(F)F`, the Cmax ratio was 0.37 (human; 25 mg single dose, observed geometric mean, together with: rifampicin; baseline: with over without rifampicin).
